Experimental data from different studies.
Each numbered part is a random draw from the data of one study; scales do not carry over between parts.

Sample 1 — method: RNA Bind-n-Seq; form: RNA; medium: in vitro; tested at: not given; relative to: input RNA pool; reading: higher = stronger binding
Target: RING finger protein unkempt homolog, zinc fingers 1-6, GST-SBP tag (UNK, Homo sapiens, UniProt Q9C0B0, residues 30-357)
Sequence of UniProt Q9C0B0 (30-357, looked up): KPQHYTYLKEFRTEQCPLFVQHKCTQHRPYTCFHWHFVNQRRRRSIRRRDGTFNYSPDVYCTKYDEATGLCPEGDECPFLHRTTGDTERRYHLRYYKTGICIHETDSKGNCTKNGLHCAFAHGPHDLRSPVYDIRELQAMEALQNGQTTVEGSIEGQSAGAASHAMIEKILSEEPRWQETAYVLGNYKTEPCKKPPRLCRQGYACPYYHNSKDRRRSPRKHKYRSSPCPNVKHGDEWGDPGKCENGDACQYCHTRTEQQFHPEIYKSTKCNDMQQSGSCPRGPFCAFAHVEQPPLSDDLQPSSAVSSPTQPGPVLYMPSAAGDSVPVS
Notes: RNA with constant flanks, human-mouse chimeric sites, ends assumed
Constant ends, left off below: GGGAGUUCUACAGUCCGACGAUC … CAACAGAGGAUUGAGCAUCA
Oligonucleotide | bound/input enrichment
UAAGUCCUGUGCCAGCACUUCGCUCAUUAUAUUUUAAAUUCAAGAAAAAUAGUGUUUGUUUCCUGAUUAUUGUAUCCAAUACUUUGCCUAGUAUGUAACUCACUCUUACUGAUAAUAAAA | 13.3 ratio
GCUCCUCCCCGCUCUGCCCCUGCCUGCCACUGGGCUGGGACCAGAAUCCAGCUUUCUUUUAAAACUCUAUAUUUUUUUGUAUCCCGUGACAUUUCAUUUUUUUUAAAUAGUGUAUUUUUU | 14.6 ratio
UCGGAUGCUGUGCUGGGUCACUUUUCAUAUCCAGAUCCUUCACAGUGGACAGAUGAAGAACUGGGAAUCCCUCCUGAUGACGAGGACUGACACUGUAGACUCAGCCUACGAGUAGGAGCA | 0.332 ratio
CAACAGAGUCUAGGAUGGGUUCAUUACAUGAUUCAUGAGCCAGAACCACAUAUUCUUCUCUUUAGACGACCUCUUCCAAAAGAUCAACAAAAAUGAAGUGCAGCUGGGAUCAUCUAAUCU | 0.379 ratio
GCCACCAGAUCCCAGAAACAUGACCCUUGCUGCCUACAAGGAGAAGAUGAAGGAGCUCCCGCUGGUGUCCUUGUUCUGCUCCUGCUUCUUGUCUGAUCCCCUGAAUAAGUCGUCCUACAA | 0.19 ratio
AAAUCGUGUGUGUCCAAUAUUGAAAGUGCUUUAUCUACACUCCAGUAUGUAAGCAGUAUAGUAGUUUCUUUAGAGAAUAGGUCAGCCAUUGUGAAGUACAAUGCAAGCUUAGUCACUCCA | 7.57 ratio
AACAGAUUGUCUUUAAGCAUUCCAAGCAAUGCUUGGGGGGUGAUCAUUGUUGCCCAUGUGCCUUCUGACUGAGCUUUAAUGCUGUUCAUCCUUGAUGCUUUCCUUCACUCCAGAAUUGUU | 0.136 ratio
GCAGGAUCUUCUAAGUACCAGUGGGACAUUAUGAAAUCCCUUGGGCUGUCUGAUGAAGACAUAGUGAAGUUUUCUGAAGCAGAGCACUGGCUUGAUUAUUUCCCGCCACUGGCCGUUCAG | 0.128 ratio

Sample 2 — method: protein-binding microarray; form: double-stranded DNA, one strand shown; medium: in vitro; tested at: 0.8 µM; notes: whole 60-bp probe, no competitor; reading: higher = stronger binding; constant ends, left off below: … GTCTTGATTCGCTTGACGCTGCTG
Target: Centromere-binding protein 1, full length, N-terminal tag (CBF1, Saccharomyces cerevisiae, UniProt P17106, residues 1-351)
Sequence of UniProt P17106 (whole entry, looked up): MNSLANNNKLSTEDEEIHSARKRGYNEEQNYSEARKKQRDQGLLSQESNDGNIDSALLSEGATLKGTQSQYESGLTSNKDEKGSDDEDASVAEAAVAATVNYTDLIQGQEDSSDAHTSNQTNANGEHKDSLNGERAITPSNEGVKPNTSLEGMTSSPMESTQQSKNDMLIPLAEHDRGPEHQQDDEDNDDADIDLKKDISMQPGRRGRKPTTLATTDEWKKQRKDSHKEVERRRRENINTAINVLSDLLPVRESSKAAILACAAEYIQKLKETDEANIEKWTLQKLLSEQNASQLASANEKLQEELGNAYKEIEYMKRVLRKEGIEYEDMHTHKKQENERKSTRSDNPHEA
Oligonucleotide | fluorescence intensity [a.u.]
GAAAAATTATCGAAGCACGGGTATAGTTAATTGTAG | 850
CTAGGCCTGTTTCCTGATGTACCATCCTCCTTATTC | 475
GAAATAGGTAGACACCACGTATTGGCGACCCGATAG | 514
CCTAACTACTATAAGCACGACATATAGCTTCGTACA | 544
GAATGGATACTGCATCACCAAAAGGACCGCCGCTAG | 485
GAACCGGTGGCATGCCACATGGCGAAACCCTTATAG | 600
CTAAGAAGAGTCATTCACATGCAAGTGCGCAACTTC | 606
GAAAACAGAGGTATAAACCACATGCCGATTGTTTAG | 581

Sample 3 — read-out: enzyme activity; mode: inhibitor; tested at: 20 µM; notes: primary screen
Target: Replicase polyprotein 1ab, main protease (rep, Severe acute respiratory syndrome coronavirus 2, UniProt P0DTD1)
SMILES | inhibition
N[C@@H](C(=O)N[C@@H]1C(=O)N2C(C(=O)O)=C(Cl)CS[C@H]12)c1ccccc1 | 76%
Cc1ccc(C)c(-n2sc3cc(F)ccc3c2=O)c1 | 101%
COC(=O)C1=C(C)NC(C)=C(C(=O)O[C@H]2CCN(Cc3ccccc3)C2)[C@H]1c1cccc([N+](=O)[O-])c1 | 26.5%
CC(C)c1cc(CNc2nc(Nc3cc(C4CC4)[nH]n3)cc(N3CCN(C)CC3)n2)on1 | 44.8%

Sample 4 — method: protein binding microarray; form: double-stranded DNA, one strand shown; medium: in vitro; tested at: not given; relative to: not given; reading: higher = stronger binding
Target: Histone acetyltransferase KAT6A, both winged helices, GST fusion (KAT6A, Homo sapiens, UniProt Q92794, residues 1-181)
Notes: 8-mer, flanks averaged, mean of 2 arrays, mostly near background
Residues (chain): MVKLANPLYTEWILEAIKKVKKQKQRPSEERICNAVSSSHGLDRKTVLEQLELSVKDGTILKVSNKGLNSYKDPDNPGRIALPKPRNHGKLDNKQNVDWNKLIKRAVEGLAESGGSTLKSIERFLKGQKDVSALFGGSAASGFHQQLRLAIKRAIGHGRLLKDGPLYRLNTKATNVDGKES
Oligonucleotide | E-score
CGTCCATC | 0.145
CGTGCTTC | -0.0513
ATTAATGG | -0.0609
AGTGGACA | -0.151
AACAGAAC | -0.0643
AGCATAAG | -0.124
ACAATCGT | -0.0414
AGGGACCC | -0.125

Sample 5 — mode: inhibitor; tested at: 20 µM
Target: Replicase polyprotein 1ab, nsp13 helicase (rep, Severe acute respiratory syndrome coronavirus 2, UniProt P0DTD1)
SMILES | inhibition [%]
CNc1nc(NCc2ccc(NS(C)(=O)=O)cc2Cl)cc(-c2ccccn2)n1 | -0.29
COc1ccc2nc(NC(=O)Nc3ccccc3)sc2c1 | 8.56
COc1cc(C(=S)N2CCOCC2)cc(OC)c1OC | -10.2
CCOC(=O)c1ncn2c1CN(C)C(=O)c1cc(N=[N+]=[N-])ccc1-2 | 0.13
Cc1cc(OCCN2CCOCC2)nn1-c1ccc2ccccc2c1 | 0.38
CN1C(=O)C(N2CCCCC2)S/C1=C\C(=O)O (centres unmarked) | 55.3
O=C(O)C[C@H]1CC[C@H](c2ccc(-c3ccc(Nc4ccc(C(F)(F)F)nc4)cn3)cc2)CC1 | 5.38
O=C(O)C(Cc1ccccc1[N+](=O)[O-])=NNc1nc(-c2ccc(Cl)c(Cl)c2)cs1 (mixture of isomers) | -3.6
N[C@@H](CCC(=O)N[C@@H](CSN=O)C(=O)NCC(=O)O)C(=O)O | 9.37
CC(C)N(CCCNC(=O)Nc1ccc(C(C)(C)C)cc1)C[C@H]1O[C@@H](n2cc(Br)c3c(N)ncnc32)[C@H](O)[C@@H]1O | 8.73
CN[C@@H](C)[C@H]1[C@H](O)C[C@@]2(C)[C@@H]3CC[C@H]4C(C)(C)[C@@H](NC)CC[C@@]45C[C@@]35CC[C@]12C | 11.8
O=P(O)(O)C(O)(Cc1cnc2ccccn12)P(=O)(O)O | -6.05
Cc1c[nH]c2ncnc(N3CCC(CN)(C(=O)Nc4cccc(OC(=O)N(C)C)c4)CC3)c12 | 0.54
COc1cccc(N2CCN(C3=Nc4c(F)cccc4[C@H](CC(=O)O)N3c3cc(C(F)(F)F)ccc3OC)CC2)c1 | 5.08
N#C/C(=C\c1ccc(O)c(O)c1)C(=O)NCCCc1ccccc1 | 20.2
O=C(O)c1cc(C(=O)O)c(C(=O)N(Cc2cccc(Oc3ccccc3)c2)[C@H]2CCCc3ccccc32)cc1C(=O)O | 8.44
Clc1ccc(C(c2ccc(Cl)cc2)C(Cl)(Cl)Cl)cc1 | -0.08
CN[C@@H](C)C(=O)N[C@H](C(=O)N1CCC[C@H]1C(=O)Nc1snnc1-c1ccccc1)C1CCCCC1 | -0.47
Cc1cccc(Nc2ccncc2S(=O)(=O)NC(=O)NC(C)C)c1 | 7.82
O=C(O)CCCC[C@@H]1SC[C@@H]2NC(=O)N[C@@H]21 | 3.36
O=C(O)CCCCCCCCC(=O)O | 7.83
CCO[C@@H](Cc1ccc(OCCn2c(C)ccc2-c2ccc(SC)cc2)cc1)C(=O)O | 45.4
CC(=O)Nc1ccc(C(=O)Nc2ccccc2N)cc1 | 1.69
CC(C)(C)NCC(O)c1ccc(O)c(CO)c1 (centres unmarked) | -4.53
NC[C@H]1O[C@H](O[C@H]2[C@H](O)[C@@H](O[C@H]3O[C@H](CO)[C@@H](O)[C@H](N)[C@H]3O)[C@H](N)C[C@@H]2N)[C@H](O)[C@@H](O)[C@@H]1O | 5.42

Sample 6 — cell line: HEK-293T/ACE2; tested at: concentration not given; time: 16 (unit not given); relative to: vehicle
Structure (SMILES) | viability [%]
CCOC(=O)c1ccc(C#Cc2ccc3c(c2)C(C)(C)CCS3)nc1 | 95.5
CC(CCc1ccccc1)NCC(O)c1ccc(O)c(C(N)=O)c1 (centres unmarked) | 104
CN1CCN2c3ncccc3Cc3ccccc3C2C1 (centres unmarked) | 107

Some of these lines once more (sample 5):
SMILES | inhibition [%]
CCO[C@@H](Cc1ccc(OCCn2c(C)ccc2-c2ccc(SC)cc2)cc1)C(=O)O | 45.4
Cc1cc(OCCN2CCOCC2)nn1-c1ccc2ccccc2c1 | 0.38
N[C@@H](CCC(=O)N[C@@H](CSN=O)C(=O)NCC(=O)O)C(=O)O | 9.37
COc1cccc(N2CCN(C3=Nc4c(F)cccc4[C@H](CC(=O)O)N3c3cc(C(F)(F)F)ccc3OC)CC2)c1 | 5.08
CC(=O)Nc1ccc(C(=O)Nc2ccccc2N)cc1 | 1.69
O=C(O)C(Cc1ccccc1[N+](=O)[O-])=NNc1nc(-c2ccc(Cl)c(Cl)c2)cs1 (mixture of isomers) | -3.6
N#C/C(=C\c1ccc(O)c(O)c1)C(=O)NCCCc1ccccc1 | 20.2
CCOC(=O)c1ncn2c1CN(C)C(=O)c1cc(N=[N+]=[N-])ccc1-2 | 0.13
CN[C@@H](C)[C@H]1[C@H](O)C[C@@]2(C)[C@@H]3CC[C@H]4C(C)(C)[C@@H](NC)CC[C@@]45C[C@@]35CC[C@]12C | 11.8
